Measured values gathered from unrelated publications.
Compare with care: the assays were run in different laboratories. Converted amounts (≈) assume the structure as drawn.
Organism: Mycolicibacterium smegmatis

Compound | assay | system | setting | quantity | value
CC[C@H](C)[C@H](NC(=O)CNC(=O)[C@@H](NC(=O)[C@@H](N)Cc1ccccc1)[C@@H](C)CC)C(=O)N[C@@H](CCSC)C(=O)N[C@@H](C)C(=O)N[C@H](C(=O)N[C@@H](CC(C)C)C(=O)N[C@@H](C)C(=O)N[C@@H](CO)C(=O)N[C@@H](CC(C)C)C(=O)N[C@H](C(=O)N[C@H](C(=O)N1CCC[C@H]1C(=O)N[C@@H](CCCCN)C(=O)N[C@@H](CC(C)C)C(=O)N[C@H](C(=O)N[C@@H](CCC(=O)O)C(=O)N[C@@H](CCCCN)C(=O)N[C@H](C(=O)N[C@@H](CCCCN)C(=O)N[C@@H](CCC(N)=O)C(=O)N[C@@H](C)C(=O)N[C@@H](CCCNC(=N)N)C(N)=O)[C@@H](C)CC)[C@@H](C)CC)[C@@H](C)CC)C(C)C)[C@@H](C)O | ATP luminescence | ATCC 607 | 48 h | MIC | > 50 µM
CCCCCCCC/C=C\CCCCc1cc(=O)c2ccccc2n1C | microbial growth | MC^2155 | 72 h | MIC | 28.3 µM
CN(C)c1ccc(/C=C/C(=O)C(C(=O)c2ccccc2)=C2SCCCCS2)cc1 |  | pTet-ClpP1P2 chromosomal |  | MIC50 | > 100 µM
CC[C@H](C)[C@H](NC(=O)[C@H](CCC(N)=O)NC(=O)[C@@H]1CCCN1C(=O)[C@@H](NC(=O)[C@@H](NC(=O)[C@H](Cc1ccc(O)cc1)NC(=O)[C@H](C)NC(=O)[C@H](C)NC(=O)[C@H](CC(C)C)NC(=O)[C@H](CCCCN)NC(=O)[C@H](C)NC(=O)[C@H](CC(C)C)NC(=O)[C@H](CC(C)C)NC(=O)CNC(=O)[C@@H](NC(=O)[C@@H](N)Cc1ccccc1)C(C)C)C(C)C)[C@@H](C)CC)C(=O)N[C@H](C(=O)N[C@@H](CCCCN)C(=O)N[C@@H](CCCNC(=N)N)C(=O)N[C@@H](Cc1ccccc1)C(=O)N[C@@H](CCC(N)=O)C(=O)N[C@@H](CCCCN)C(=O)N[C@@H](CCCCN)C(=O)N[C@@H](CCCCN)C(N)=O)C(C)C | ATP luminescence | ATCC 607 | 48 h | MIC | 25 to 50 µM
CC(C)=CCC/C(C)=C/CNCCOC1C2CC3CC(C2)CC1C3 (centres unmarked) | microbial growth |  |  | IC50 | 1.6 mg/L (≈ 4.83 µM)
CC(=O)NC1C(OC2OC(CC(O)C3OC(n4ccc(=O)[nH]c4=O)C(O)C3O)C(O)C(O)C2NC(=O)COCc2ccc(N3CCC(Oc4ccc(OC(F)(F)F)cc4)CC3)cc2)OC(CO)C(O)C1O (centres unmarked) |  | ATCC 607 |  | MIC | > 50 mg/L
CC[C@H](C)[C@H](NC(=O)[C@@H]1CC(=O)N[C@@H](CO)C(=O)N[C@@H](CC(C)C)C(=O)NCC(=O)N[C@@H](CO)C(=O)N[C@@H](CO)C(=O)N2CCC[C@H]2C(=O)N[C@@H](Cc2ccc(O)cc2)C(=O)N[C@@H](CC(N)=O)C(=O)N1)C(=O)N[C@@H](CC(C)C)C(=O)NCC(=O)N[C@@H](Cc1ccc(O)cc1)C(=O)N1CCC[C@H]1C(=O)N[C@@H](C)C(=O)N[C@@H](CC(C)C)C(=O)N[C@H](C(=O)N[C@H](C(=O)N[C@H](C(=O)N[C@@H](Cc1ccc(O)cc1)C(=O)N1CCC[C@H]1C(=O)O)[C@@H](C)CC)C(C)C)[C@@H](C)CC |  |  |  | MIC | > 128 mg/L
CCCCCCCCC/C=C\CCCc1cc(=O)c2ccccc2n1C | microbial growth | MC^2155 | 72 h | MIC | 28.3 µM
CC[C@H](C)[C@H](NC(=O)[C@H](C)NC(=O)[C@H](C)NC(=O)[C@H](Cc1ccccc1)NC(=O)[C@H](C)NC(=O)CNC(=O)[C@H](Cc1ccccc1)NC(=O)[C@@H](N)Cc1ccccc1)C(=O)N[C@@H](C)C(=O)N[C@@H](CO)C(=O)N[C@@H](CC(C)C)C(=O)N[C@H](C(=O)N[C@H](C(=O)N1CCC[C@H]1C(=O)N[C@@H](CCCCN)C(=O)N[C@@H](CC(C)C)C(=O)N[C@H](C(=O)N[C@@H](CCC(=O)O)C(=O)N[C@@H](CCCCN)C(=O)N[C@H](C(=O)N[C@@H](CCCCN)C(=O)N[C@@H](CCC(N)=O)C(=O)N[C@@H](C)C(=O)N[C@@H](CCCNC(=N)N)C(N)=O)[C@@H](C)CC)[C@@H](C)CC)[C@@H](C)CC)C(C)C | ATP luminescence | ATCC 607 | 48 h | MIC | > 50 µM
CC(=O)NC1C(OC2OC(CC(O)C3OC(n4ccc(=O)[nH]c4=O)C(O)C3O)C(O)C(O)C2NC(=O)C=CCCCCCCCCCC(C)C)OC(CO)C(O)C1O (centres unmarked) |  | ATCC 607 |  | MIC | > 50 mg/L
COc1ccc(-c2cc(=O)c3c(O)c(OC)c(O)cc3o2)cc1 |  | ATCC 1441 | concentration not given | activity | inactive

A few entries again:
Compound | assay | system | setting | quantity | value
CC[C@H](C)[C@H](NC(=O)[C@H](C)NC(=O)[C@H](C)NC(=O)[C@H](Cc1ccccc1)NC(=O)[C@H](C)NC(=O)CNC(=O)[C@H](Cc1ccccc1)NC(=O)[C@@H](N)Cc1ccccc1)C(=O)N[C@@H](C)C(=O)N[C@@H](CO)C(=O)N[C@@H](CC(C)C)C(=O)N[C@H](C(=O)N[C@H](C(=O)N1CCC[C@H]1C(=O)N[C@@H](CCCCN)C(=O)N[C@@H](CC(C)C)C(=O)N[C@H](C(=O)N[C@@H](CCC(=O)O)C(=O)N[C@@H](CCCCN)C(=O)N[C@H](C(=O)N[C@@H](CCCCN)C(=O)N[C@@H](CCC(N)=O)C(=O)N[C@@H](C)C(=O)N[C@@H](CCCNC(=N)N)C(N)=O)[C@@H](C)CC)[C@@H](C)CC)[C@@H](C)CC)C(C)C | ATP luminescence | ATCC 607 | 48 h | MIC | > 50 µM
